Results from different studies.
Each numbered part is a random draw from the data of one study; scales do not carry over between parts.

Set 1
Target: Histone acetyltransferase KAT6A, winged helix 1, GST fusion (KAT6A, Homo sapiens, UniProt Q92794, residues 1-85)
Technique: protein binding microarray
Form: double-stranded DNA, one strand shown
Sample: in vitro
Tested at: not given
Notes: 8-mer, flanks averaged, mean of 2 arrays, mostly near background
Relative to: not given
Direction: higher = stronger binding
Residues (chain): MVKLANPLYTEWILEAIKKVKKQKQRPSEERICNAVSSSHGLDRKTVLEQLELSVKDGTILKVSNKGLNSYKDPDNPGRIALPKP
Sequence	E-score
ATCTTGAC	-0.196
GCTCGACC	0.0903
CACATTAG	-0.181
CAAGTGAG	-0.109
ACAAACCG	-0.0343
GAATATCA	-0.0569

Set 2
Target: Sal-like protein 4, full length isoform B (SALL4, Homo sapiens, UniProt Q9UJQ4-2, residues 1-616)
Technique: universal PBM
Form: double-stranded DNA, one strand shown
Sample: in vitro
Tested at: not given
Notes: 8-mer, flanks averaged, mean of replicates
Direction: higher = stronger binding
Construct (chain): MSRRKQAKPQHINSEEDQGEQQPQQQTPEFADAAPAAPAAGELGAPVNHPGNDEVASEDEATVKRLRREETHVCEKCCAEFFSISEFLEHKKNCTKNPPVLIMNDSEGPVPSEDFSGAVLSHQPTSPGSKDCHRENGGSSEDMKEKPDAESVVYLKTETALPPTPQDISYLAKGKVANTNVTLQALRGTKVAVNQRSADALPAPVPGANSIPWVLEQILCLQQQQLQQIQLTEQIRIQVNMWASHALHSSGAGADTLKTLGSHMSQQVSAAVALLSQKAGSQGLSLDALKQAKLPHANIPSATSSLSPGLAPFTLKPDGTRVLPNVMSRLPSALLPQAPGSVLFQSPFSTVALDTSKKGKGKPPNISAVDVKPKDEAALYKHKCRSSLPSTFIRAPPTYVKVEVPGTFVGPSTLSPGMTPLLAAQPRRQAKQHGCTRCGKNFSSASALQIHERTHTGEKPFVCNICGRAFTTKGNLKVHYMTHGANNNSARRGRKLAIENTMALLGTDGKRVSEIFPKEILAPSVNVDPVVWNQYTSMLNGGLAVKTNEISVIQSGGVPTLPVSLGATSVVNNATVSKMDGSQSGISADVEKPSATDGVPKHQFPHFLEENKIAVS
Sequence	E-score
TACTTGGA	0.15
ATCCAATG	-0.00135
AGAAACGA	-0.00063
GAGTCTCC	-0.176

Set 3
Molecule: PhoQ, residues 284 288 289 292 302 303 SNGLAW
Technique: Sort-seq
Refers to: YFP reporter
Sample: E. coli
Notes: PhoQ-PhoP variant library
Together with: 10 µM Mg2+
Relative to: high Mg2+ state
Direction: higher = stronger signaling
target	fold induction
PhoP, residues 12 14 15 18 19 GMGLL (Escherichia coli, UniProt P23836)	13.5
PhoP, residues 12 14 15 18 19 LFHKL (Escherichia coli, UniProt P23836)	4.76
PhoP, residues 12 14 15 18 19 QQAYL (Escherichia coli, UniProt P23836)	8.65

Set 4
Target: PABPC1L2, full length, GST fusion (mouse, UniProt A0ABA7IW68)
Technique: RNAcompete
Form: RNA
Sample: in vitro
Tested at: 20 nM
Notes: 7-mer, probes averaged, single round
Relative to: mean of 7-mers
Direction: higher = stronger binding
Residues (chain): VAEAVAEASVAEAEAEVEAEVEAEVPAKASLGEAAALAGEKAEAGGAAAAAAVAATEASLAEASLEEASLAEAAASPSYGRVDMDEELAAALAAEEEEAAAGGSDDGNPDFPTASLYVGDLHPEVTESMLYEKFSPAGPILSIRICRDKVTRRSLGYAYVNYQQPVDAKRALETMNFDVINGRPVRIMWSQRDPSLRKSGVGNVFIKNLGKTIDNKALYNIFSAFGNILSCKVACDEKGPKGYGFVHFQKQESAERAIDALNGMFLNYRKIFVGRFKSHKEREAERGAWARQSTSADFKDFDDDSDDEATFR
Sequence	7-mer Z-score
UGCCCAA	-0.115
AGCAGGA	0.164
CAGGCUA	0.0895
UUUACCU	-0.186

For quick reference, copied from above (set 1):
Sequence	E-score
ACAAACCG	-0.0343
